Assay results pooled from the literature.
Compare with care: the assays were run in different laboratories. Values joined by “and” are separate records of one study, mostly repeats; a detail may differ.

SMILES	target or system	assay	system	conditions	how to read	quantity	value
CC(=O)c1nn(-c2ccc(Cl)cc2)/c(=N/N=C(\C)c2ccc(NC(=O)c3ccc(Cl)cc3)cc2)s1	HepG2			0.312 µM		toxicity	1.41%
Cc1ccc(NC(=O)[C@H]2CCCN(C(=O)c3c(C)cccc3F)[C@H]2c2ccc(NC3CCCC3)cc2)cc1C(F)(F)F	human peripheral blood neutrophils	flow cytometry FSC/SSC		0.1 µM, together with: C5a 100 ng/mL, MPO-ANCA immune complex	relative to: unstimulated neutrophils	neutrophil swelling	1.24 fold change and 1.47 fold change and 1.4 fold change and 1.2 fold change
Cc1nn(-c2nc3c(F)cc(F)cc3s2)c(O)c1C(c1ccc(C(F)(F)F)cc1)c1c(C)nn(-c2nc3c(F)cc(F)cc3s2)c1O	THP1-Dual	IFN luciferase reporter		1.25 µM, together with: HT-DNA		inhibition	-0.869% and 0.012% and 5.55% and 1.26% and -6.28% and -6.65%
C[C@H]1Oc2cc(cnc2N)-c2c(nn(C)c2C#N)CN(C)C(=O)c2ccc(F)cc21	Ba/F3 EML4-ALK v1	cell viability				IC50	0.0198 µM
COc1cc2ncnc(Nc3ccc(Oc4ccccc4)c(C)c3C)c2cc1OC.Cl	LoVo (KRAS G13D)	cell viability		concentration not given, 72 h, together with: trametinib	direction not given	Bliss synergy score	-27.1%
CC(=O)Nc1ccc(/C(C)=N/N=c2\sc(C(C)=O)nn2-c2ccc(C)cc2)cc1	MCF7	MTT		10 µM		cytotoxicity	94.6%
CCCCN1C[C@H](O)[C@@H](O)[C@@H](O)[C@H]1CO	sample E patient fibroblasts	Gb3 level lowering, LC-MS/MS, measured: Gb3 d18:1/18:0		216 h		IC50	41 µM
Cn1cc(-n2cnc3c(NCc4nc5cc(Cl)c(Cl)cc5[nH]4)nc(N4CCOCC4)nc32)cn1	MDA-MB-468	cell viability, CellCounting-Lite		0.3048 nM, 37 °C	higher = more viable cells	luminescence signal	429000 a.u. and 516000 a.u. and 513000 a.u.
[H]/N=C(/NCCCCC)N/N=C/c1c[nH]c2ccc(OC)cc12	Toxoplasma gondii	parasite growth	HFF, bradyzoite, glutamine-induced			EC50	19.9 µM
NNc1nc(-c2ccc(Cl)cc2)c2c(NC(=O)c3ccccc3)nnc-2[nH]1	Malme-3M	SRB		10 µM, NCI60 single-dose screen	relative to: untreated	cell growth	98.5%
CC(C)(C)c1ccc(S(=O)(=O)/C=C/C#N)cc1	Toxoplasma gondii	parasite growth	HFF, bradyzoite, alkaline-induced			EC50	9.65 µM
Nc1cccc2c1C(=O)N(C1CCC(=O)NC1=O)C2=O (stereo not shown)	RPMI-8226	flow cytometry, measured: CD71		concentration not given	relative to: comparator compound alone	surface marker level	239%
[Cl-].[Cl-].[Os+2].c1cnc2c(c1)ccc1cccnc12.c1cnc2c(c1)ccc1cccnc12.c1cnc2c(c1)ccc1cccnc12	SK-MEL-28	resazurin		normoxia, together with: visible light	relative to: dark EC50 over light EC50	phototherapeutic index	4
N#Cc1ccc(C[C@H](NC(=O)c2cc3cc([N+](=O)[O-])ccc3[nH]2)C(=O)N2CCc3ccccc32)cc1	human neutrophils	calcium mobilization, agonist				EC50	> 50 µM
C=CC1=C(C)c2cc3[n-]c(cc4nc(cc5[n-]c(cc1n2)c(C)c5C=C)C(C)=C4CCC(=O)O)c(CCC(=O)O)c3C.[Zn+2]	SH-SY5Y	RNA-seq, measured: RYR3 mRNA		5 µM, 5 h	relative to: untreated cells	fold change	2.18
CN1CCN(c2ccc3[nH]c(-c4ccc5[nH]c(-c6ccc(C(F)(F)F)cc6)nc5c4)nc3c2)CC1	Malme-3M	SRB		10 µM, 48 h		growth percent	18%
Cn1cc(-c2ccc(-c3cncc(Cl)c3N3CCC4(CCNC4=O)CC3)cc2)cn1	COLO 205	gene expression, microarray, measured: ZNF548 mRNA		concentration not given, 6 h	relative to: untreated cells	log2 fold change	1.76
COc1cnc2cccc(N3CCc4c(cc(Cn5ccnc5C)cc4-c4cn(C)nc4C(F)(F)F)C3=O)c2c1	KP2	cell growth		120 h		EC50	> 30 µM
O=C(/C=C/C=C/C=C/C1CCCCC1)NC1=C[C@@](O)(/C=C/C=C/C=C/C(=O)NC2=C(O)CCC2=O)[C@@H]2O[C@@H]2C1=O	lmsu	cell growth, inhibitor, CellTiter-Glo luminescence		78 h	relative to: day 0 cell count	GI50	9.46 µM
C/C=C/C/C=C/CCC(=O)[C@H]1O[C@H]1C(N)=O	MCF-10A	CellTiter-Glo		concentration not given	relative to: normalised, mean of replicates	viability	84.1%
CCn1cc(-c2cc(Cn3ccnc3)cc3c2CCN([C@H](c2cc(OC)ccn2)C2CC2)C3=O)c(C(F)(F)F)n1	SNU761	cell growth		120 h		EC50	20.1 µM
COC(=O)Nc1nc2ccc(C(=O)c3cccs3)cc2[nH]1	tsFT210 G2-synchronised	flow cytometry		100 nM, 4 h after release at 32 °C		S-phase cells	2.2%
